Measurements pooled from the literature.
Every numbered part comes from another study and shows a few of its results, in no order.

Block 1
Target: Prothrombin, mature alpha-thrombin (F2, Homo sapiens, UniProt P00734)
Technique: aptamer microarray, sandwich
Molecule type: DNA with 2'F-ANA
Matrix: in vitro
Tested at: 200 nM
Setting: whole 15-mer aptamer, many near background
Added: Cy3 exosite-II aptamer, 400 nM
Direction: higher = stronger binding
Sequence: GGTTGGTGTGGTTGG
Under “mean fluorescence intensity”, `2'F-ANA at 1 2 4 13` is recorded as 83.7 a.u.
Under “mean fluorescence intensity”, `2'F-ANA at 1 5 6 7 10 12 13 14 15` is recorded as 48.9 a.u.
Under “mean fluorescence intensity”, `2'F-ANA at 2 8 9 11 12 13 15` is recorded as 510 a.u.
Under “mean fluorescence intensity”, `2'F-ANA at 1 2 3 7 8 9 12 13 14` is recorded as 91.9 a.u.
For `2'F-ANA at 3 5 7 10 11 12`, “mean fluorescence intensity” read 65.5 a.u.
For `2'F-ANA at 1 3 5 6 7 8 10 11 12 15`, “mean fluorescence intensity” read 55 a.u.
`2'F-ANA at 1 3 5 7 8 10 11 12 14 15` — result for “mean fluorescence intensity”: 76.2 a.u.
`2'F-ANA at 1 2 5 6 8 13 14 15` — result for “mean fluorescence intensity”: 54.6 a.u.
`2'F-ANA at 3 7 9 11 12 14`: “mean fluorescence intensity” 700 a.u.
Under “mean fluorescence intensity”, `2'F-ANA at 11 12 15` is recorded as 659 a.u.
`2'F-ANA at 1 3 4 5 11 12`: “mean fluorescence intensity” 94.5 a.u.
`2'F-ANA at 1 2 3 5 11 13 14 15`: “mean fluorescence intensity” 49 a.u.
For `2'F-ANA at 2 4 5 6 7 9 11 12 13 14`, “mean fluorescence intensity” read 46 a.u.
Under “mean fluorescence intensity”, `2'F-ANA at 2 3 5 6 7 9 10 13` is recorded as 50.1 a.u.
For `2'F-ANA at 2 3 6 10 14`, “mean fluorescence intensity” read 282 a.u.
Under “mean fluorescence intensity”, `2'F-ANA at 1 4 8 11 13` is recorded as 102 a.u.
`2'F-ANA at 3 4 5 6 9 10 12 14`: “mean fluorescence intensity” 68.9 a.u.
Under “mean fluorescence intensity”, `2'F-ANA at 2 3 5 6 8 9 11 12 14 15` is recorded as 61.7 a.u.

Block 2
Target: Centromere-binding protein 1, full length, His-tagged (CBF1, Saccharomyces cerevisiae, UniProt P17106, residues 1-351)
UniProt P17106, sequence (whole entry, looked up): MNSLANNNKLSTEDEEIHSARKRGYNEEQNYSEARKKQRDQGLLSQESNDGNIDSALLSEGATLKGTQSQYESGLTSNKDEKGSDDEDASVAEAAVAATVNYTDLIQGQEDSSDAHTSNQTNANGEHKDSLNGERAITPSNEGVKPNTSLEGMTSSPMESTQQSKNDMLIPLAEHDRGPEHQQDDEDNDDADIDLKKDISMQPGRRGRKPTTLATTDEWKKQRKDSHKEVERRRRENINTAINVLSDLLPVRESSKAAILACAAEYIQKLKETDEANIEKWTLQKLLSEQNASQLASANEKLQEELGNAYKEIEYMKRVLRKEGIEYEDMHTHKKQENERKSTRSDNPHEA
Technique: competition protein-binding microarray
Molecule type: double-stranded DNA, one strand shown
Matrix: in vitro
Tested at: 2 µM
Setting: whole 60-bp probe, lowest competitor level
Added: Pho4 competitor, 0.05 µM
Direction: higher = stronger binding
`AAATTACTAAGTTGTCACTCAACTTACCCCGTATGAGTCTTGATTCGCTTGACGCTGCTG` gave a fluorescence intensity of 68.5 a.u.
The fluorescence intensity of `CTTCTGTAAATTTTCCACGTGTTTTGACGCGCCCCGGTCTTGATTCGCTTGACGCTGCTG` is reported as 737 a.u.
With `ACTCGCATGTTACCGTCCGTGACGGACTCCTTTGTGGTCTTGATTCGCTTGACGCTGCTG` the fluorescence intensity was 75.2 a.u.
`CTAACGAAGGTTTGTCACGTGTTTTACAAGCCAAGTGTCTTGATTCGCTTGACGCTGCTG` gave a fluorescence intensity of 4220 a.u.
`GTACGAAGCAGGCTGCACATGTGTGGGTTTACCTTCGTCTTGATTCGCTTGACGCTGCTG` gave a fluorescence intensity of 113 a.u.
`AAGATTCCGGAGTCCCTCGTGAGGAAATTTTTATTAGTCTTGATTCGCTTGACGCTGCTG` gave a fluorescence intensity of 87.8 a.u.
`GTAGCTTCGCGGCAATGCCTGATCCGACAGCCGCAAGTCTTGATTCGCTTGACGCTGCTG` has a fluorescence intensity of 44.5 a.u.
`CTTGCAAACAGCGGCCACGTCGCATCAAGTGGTGGCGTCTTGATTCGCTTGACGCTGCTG` has a fluorescence intensity of 53.9 a.u.
With `CATACCCAACCTTTTCACGTGTACTAAGATATTTGTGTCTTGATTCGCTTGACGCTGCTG` the fluorescence intensity was 1150 a.u.
`CTAACGAAGGTTTGTCACAGGACTTACAAGCCAAGTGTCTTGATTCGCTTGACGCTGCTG` has a fluorescence intensity of 90.7 a.u.
`CCGGTTTAACCCCCCGGCGTGCTTTGGTAGGTGCCCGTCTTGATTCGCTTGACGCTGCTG` has a fluorescence intensity of 114 a.u.
With `AGCAATACCTTTCGGCACGTTCTTGAAAATTCCACAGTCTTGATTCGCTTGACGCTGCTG` the fluorescence intensity was 194 a.u.
For `TAATAATTCTTGTTCCTCGTGGCCGAATGGTTACGGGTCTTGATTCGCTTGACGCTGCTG`, the fluorescence intensity was 111 a.u.
`CGGGGTTAAGTTTGACTAGTGGGTGGCTTGCAGCAGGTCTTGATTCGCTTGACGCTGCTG` has a fluorescence intensity of 80.5 a.u.
For `TGGCGGCCGCCATCTCGCGTGAGATCGCCTTTGGACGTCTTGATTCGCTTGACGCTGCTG`, the fluorescence intensity was 61.8 a.u.
With `ACTAACGACTATTTGCACGTTGCAGTATTGTTCTGGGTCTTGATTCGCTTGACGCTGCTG` the fluorescence intensity was 157 a.u.
For `GCGCGATAGCGGCAGCGCGTGGCCGGGCAAGGGTCTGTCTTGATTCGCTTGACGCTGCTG`, the fluorescence intensity was 61 a.u.
With `TGCGCAACAACTTGATAGGTGGGTGTATGTCTAGAAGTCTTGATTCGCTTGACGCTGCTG` the fluorescence intensity was 52.1 a.u.
The fluorescence intensity of `AAAGGCCACAAGTTGCGCATGCCTTTTTGCAATGTTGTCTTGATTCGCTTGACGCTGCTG` is reported as 70.1 a.u.

Block 3
Target: RING finger protein unkempt homolog, zinc fingers 1-6, SBP tag (UNK, Homo sapiens, UniProt Q9C0B0, residues 30-357)
UniProt Q9C0B0, sequence (30-357, looked up): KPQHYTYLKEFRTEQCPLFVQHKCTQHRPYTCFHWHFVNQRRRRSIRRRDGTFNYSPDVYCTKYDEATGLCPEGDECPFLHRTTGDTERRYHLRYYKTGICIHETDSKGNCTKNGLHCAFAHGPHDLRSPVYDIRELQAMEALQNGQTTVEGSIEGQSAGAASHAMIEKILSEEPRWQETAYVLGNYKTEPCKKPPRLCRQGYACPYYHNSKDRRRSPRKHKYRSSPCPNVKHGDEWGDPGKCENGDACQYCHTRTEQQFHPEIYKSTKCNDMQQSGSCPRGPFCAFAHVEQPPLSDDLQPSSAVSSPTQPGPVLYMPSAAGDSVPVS
Technique: RNA Bind-n-Seq
Molecule type: RNA
Matrix: in vitro
Tested at: 100 nM
Setting: RNA with constant flanks, vertebrate orthologous sites, ends assumed
Relative to: input RNA pool
Direction: higher = stronger binding
`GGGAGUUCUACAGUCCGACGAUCCCUACAAUAAUGAAAACCUACAGGAAUUUUUUUAUUUUACAUUUUCCCCUUAGGCAUAUUUAGUAUUUUUUCCCCAGGCAGAUCAUUCUGAGUGUGCGAGUGUGUGUGCACAUGUUACAACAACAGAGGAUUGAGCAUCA` gave a bound/input enrichment of 2.82 ratio.
With `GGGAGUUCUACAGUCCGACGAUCCUCAUUUCCAGGUUGGCUCUAGUGGAAAAGUCAUAGGAAUUGACCACAUUAAAGAACUAGUAGAUGACUCAAUAAAUAAUGUCAGAAAGGACGAUCCAAUGCUUUUGUCUUCAGGGAGAGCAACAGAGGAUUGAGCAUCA` the bound/input enrichment was 1.19 ratio.
The bound/input enrichment of `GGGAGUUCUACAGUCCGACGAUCUCAGUCUUCCACUUACGGUUGGCCUCAGAUCUAUAGGAUUUAUGACAAAUGUAUUAUAUCUAGUUAAGUUGAGUUUAAUAUUUUUUUAUUAGCCUGUAAAUAAAGAUGGCAUCUUCUACACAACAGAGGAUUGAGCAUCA` is reported as 0.719 ratio.
For `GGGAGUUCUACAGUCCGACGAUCGUUUAGAAUCUUAAUAAAUUGCUCCAAGAUUCCUGAAGUCAGUUCUGUAGGAUCAGACCAUAGGACAGUGGGGGGUGUGUGUGUGCGUAUAUAUACUGUUUCCAAAGUUACGUUUAAAGCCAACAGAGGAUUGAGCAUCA`, the bound/input enrichment was 1.48 ratio.
The bound/input enrichment of `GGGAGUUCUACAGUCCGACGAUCAUUUAGAAUGUUAAUAAAUUGCUCUGAGUUUCCUCAAGUCCAUUUUGUAAGAUCAGACCAUAGGUGGGCGUUGUUUCUUUUAAGUUUGUGUACUGUGUCCAAUGUUACAUUUUUAGAAGUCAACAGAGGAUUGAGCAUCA` is reported as 2.52 ratio.
With `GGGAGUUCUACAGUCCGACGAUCAAUGGCUUUUGCUUCAUGAAAAAGACUAAAAAAUAGUCCCCUCAAUUAAAAAUGCCUAAAUAGCUAUUUUAAAAAUCAAAAUGUUUAAAUUUCGUAAAUCACCUGAUGUCACUACACGCCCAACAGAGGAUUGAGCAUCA` the bound/input enrichment was 0.773 ratio.
For `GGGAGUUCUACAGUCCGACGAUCUCCUCAACCUGUUCUAGCUUGUGAUCCUUCAAAGUUGGGUCAUACAUUAGUGCUAGAUACUAGAAAUUUUCACUUUUCCAUUGAUCAGAGAGUCAGACAUAUAAAAACGAAAAUAAAAGACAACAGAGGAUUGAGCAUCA`, the bound/input enrichment was 1.18 ratio.
With `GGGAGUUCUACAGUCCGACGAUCAAUGUGUUUUUAGUUAGUCUUUAGCACAAAACUACCCCCGAUUGUGUUAGAUUUAAAAAUUAGUAGAUUAAUUUCUCUCUGUUGUAUUGCUUUCAUUAUUGAAAAUAAAUAGAACUUUGUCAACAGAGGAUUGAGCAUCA` the bound/input enrichment was 0.97 ratio.
With `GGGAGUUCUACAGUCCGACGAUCUGUCUAGCUUCCAAACUUUGGCUGUUGGUAUUAGAGGCAGAUUUUCUUCUCGAGUCUCUCCUGCCUUGGAUGGGCCUCAAUAGGAGUGGACUGUGAAACUGCACCCAGCUUGUUCUCAUUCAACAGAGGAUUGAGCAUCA` the bound/input enrichment was 0.202 ratio.
For `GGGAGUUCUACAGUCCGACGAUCGCCUCCAACAGGCAAAUUCAGGGAGAGGUAGGUUUCAGGGAAUAUAAAUUUACUUAAUAUUAGUGGUCUUUAAGUAUAAACUUGAUGUAAUUGGUUUGGGAGGGGGCAGUGAUGAUGACUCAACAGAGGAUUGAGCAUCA`, the bound/input enrichment was 1.04 ratio.
The bound/input enrichment of `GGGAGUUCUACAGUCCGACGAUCCAGCCAAUUCUCUUAUUGGACGAGCAGCCCACAUUGCGGUUUUGGACUCUGAAGUAUUUUUGGAAAAGUUCUUUCUUGUUGCUGGUCUCCGAUAUUUCCAAUAGAAGGAAAGCACUGCCACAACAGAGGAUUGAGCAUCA` is reported as 0.474 ratio.

Block 4
Target: Interferon regulatory factor 5, full length, phosphomimetic (IRF5, Homo sapiens, UniProt Q13568-2, residues 1-514, K96S/S451D/S453D/S456D/S462D)
Technique: protein-binding microarray
Molecule type: double-stranded DNA, one strand shown
Matrix: in vitro
Tested at: 250 nM
Setting: 60-bp whole probe
Added: salmon DNA 0.4 mg/ml
Relative to: random background probes
Direction: higher = stronger binding
All sequences stand within: GCCTAGCAC … GTCTTGATTCGCTTGACGCTGCTG
With `CATTGCCTATTTTTCACCTGGTGCTAG` the log fluorescence was 0.364 z-score.
`GACGGTTTCCTTTTCCTGAAGTGCTAG` has a log fluorescence of 1.28 z-score.
`TGAGCTACAGATGAGGCTCGGTGCTAG` has a log fluorescence of -0.568 z-score.
For `CTTGCTTTATGTGTAGGTCTGTGCTAG`, the log fluorescence was -0.205 z-score.
`TCAAGACTTTCTTTCAAACTGTGCTAG` gave a log fluorescence of 2.3 z-score.
`GACGATTTCGGGTTTCGAGAGGTGCTA` gave a log fluorescence of 5.06 z-score.
`GACGATATCGCGTATCGAGACGTGCTA` gave a log fluorescence of 1.06 z-score.
`GACGGCCTCGGTATCGGGACGTGCTAG` has a log fluorescence of 0.551 z-score.
`GACGAACTGAGTATCGAGAAGTGCTAG` has a log fluorescence of 1.67 z-score.
`TCAGTTTTCTCTCCCATACTGTGCTAG` gave a log fluorescence of 1.11 z-score.
`TTAGAACTGGGGACTGGAATAGTGCTA` gave a log fluorescence of -0.517 z-score.
For `GTCGGTTTCCTTTCCCTGACGTGCTAG`, the log fluorescence was 2.01 z-score.
With `GACGAAATGGGGTTTCGAGACGTGCTA` the log fluorescence was 2.2 z-score.
The log fluorescence of `GACGATTTCTGGACTGGAGACGTGCTA` is reported as 0.245 z-score.
`GACGGTTTCGACTTGCGGGACGTGCTA` gave a log fluorescence of 5.88 z-score.
`TTAGGTTTCGGGTATCGTTTAGTGCTA` has a log fluorescence of 9.23 z-score.
`GACGGGTTCGGTATCGGGACGTGCTAG` gave a log fluorescence of 0.821 z-score.
The log fluorescence of `TTCAGTTTTCCTATGTCATTGTGCTAG` is reported as 1.48 z-score.

A few entries again (block 4):
The log fluorescence of `TTCAGTTTTCCTATGTCATTGTGCTAG` is reported as 1.48 z-score.
`GACGAACTGAGTATCGAGAAGTGCTAG` has a log fluorescence of 1.67 z-score.
`GACGGGTTCGGTATCGGGACGTGCTAG` gave a log fluorescence of 0.821 z-score.
`GACGGTTTCCTTTTCCTGAAGTGCTAG` has a log fluorescence of 1.28 z-score.
`TGAGCTACAGATGAGGCTCGGTGCTAG` has a log fluorescence of -0.568 z-score.
For `GTCGGTTTCCTTTCCCTGACGTGCTAG`, the log fluorescence was 2.01 z-score.
`GACGATATCGCGTATCGAGACGTGCTA` gave a log fluorescence of 1.06 z-score.
`GACGATTTCGGGTTTCGAGAGGTGCTA` gave a log fluorescence of 5.06 z-score.
`TCAGTTTTCTCTCCCATACTGTGCTAG` gave a log fluorescence of 1.11 z-score.
`TCAAGACTTTCTTTCAAACTGTGCTAG` gave a log fluorescence of 2.3 z-score.
`TTAGGTTTCGGGTATCGTTTAGTGCTA` has a log fluorescence of 9.23 z-score.
